Published values gathered from unrelated publications.
Numbered parts are unrelated; each lists some results of a single study.

Block 1 — method: universal PBM; form: double-stranded DNA, one strand shown; medium: in vitro; concentration: 600 nM; direction: higher = stronger binding
Target: Sal-like protein 4, full length isoform A (SALL4, Homo sapiens, UniProt Q9UJQ4, residues 1-1053)
UniProt Q9UJQ4, sequence (whole entry, looked up): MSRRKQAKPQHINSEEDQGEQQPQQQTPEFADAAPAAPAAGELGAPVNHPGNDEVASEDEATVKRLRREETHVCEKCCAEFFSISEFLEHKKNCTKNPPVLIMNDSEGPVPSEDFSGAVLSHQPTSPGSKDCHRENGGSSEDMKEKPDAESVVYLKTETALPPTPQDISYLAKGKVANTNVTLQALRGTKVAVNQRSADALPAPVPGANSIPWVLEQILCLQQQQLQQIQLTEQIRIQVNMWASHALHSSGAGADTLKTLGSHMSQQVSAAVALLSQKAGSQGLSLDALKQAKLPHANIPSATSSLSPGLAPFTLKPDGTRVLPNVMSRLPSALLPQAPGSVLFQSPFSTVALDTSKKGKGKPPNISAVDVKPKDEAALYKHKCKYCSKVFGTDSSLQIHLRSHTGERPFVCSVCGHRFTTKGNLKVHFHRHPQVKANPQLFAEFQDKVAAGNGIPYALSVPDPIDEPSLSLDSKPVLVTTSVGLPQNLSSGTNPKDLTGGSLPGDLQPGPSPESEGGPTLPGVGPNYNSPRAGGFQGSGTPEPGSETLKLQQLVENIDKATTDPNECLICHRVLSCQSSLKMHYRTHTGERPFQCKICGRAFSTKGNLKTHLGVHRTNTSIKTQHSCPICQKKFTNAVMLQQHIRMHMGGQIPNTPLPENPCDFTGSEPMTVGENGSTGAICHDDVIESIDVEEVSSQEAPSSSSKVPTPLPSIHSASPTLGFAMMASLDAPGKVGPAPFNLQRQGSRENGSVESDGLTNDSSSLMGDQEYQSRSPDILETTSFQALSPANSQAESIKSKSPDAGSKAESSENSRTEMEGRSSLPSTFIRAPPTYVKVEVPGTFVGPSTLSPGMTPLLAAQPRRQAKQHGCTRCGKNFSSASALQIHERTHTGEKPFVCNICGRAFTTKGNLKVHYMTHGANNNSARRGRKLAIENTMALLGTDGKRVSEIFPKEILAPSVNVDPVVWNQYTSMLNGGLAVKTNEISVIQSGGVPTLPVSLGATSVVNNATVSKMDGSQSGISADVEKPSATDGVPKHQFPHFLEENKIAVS
Notes: 8-mer, flanks averaged, mean of replicates
Oligonucleotide	E-score
CGTCAGAC	-0.191
ATCCGCGC	-0.281
ATTGGAGC	0.0462
GAACCTTC	-0.0394
CTAGGTCC	-0.254
CGTTGACC	-0.0901
ATGTCGCA	0.00123
GTGAGCAC	-0.176
GGTGGCAA	-0.179
ATCGACCC	-0.0896
CAACCCGC	-0.297
GAACGTCC	-0.0858
CCGAAATC	0.0483
CGTGTGAG	-0.171
AGTGCGAT	0.0513
CATGTAAA	0.0906

Block 2 — method: RNA Bind-n-Seq; form: RNA; medium: in vitro; concentration: 365 nM; reference: no-protein control; direction: higher = stronger binding
Target: RNA binding protein fox-1 homolog 2, RRM domain, GST-SBP tag (RBFOX2, Homo sapiens, UniProt O43251-10, residues 100-194)
Notes: natural RNA segment, single round, ends assumed
All sequences stand within: GGGAGUUCUACAGUCCGACGAUC … UGGAAUUCUCGGGUGCCAA
Residues (chain): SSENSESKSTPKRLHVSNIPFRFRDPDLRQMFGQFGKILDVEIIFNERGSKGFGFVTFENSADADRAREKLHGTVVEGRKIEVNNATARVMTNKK
Oligonucleotide	RBNS enrichment (R)
AUUCACCUAGACUUUUUUAGAUUUACUACUAGGAAACCUUCCUCAUAUGAAUAACCAUUUAUAUGUGUUUUGCUUAAAGUAUUCCAAUGCCUAUUUUCCAAGCACAGUUC	0.534
UCCUGCCUAAUUGCCCUGGCCAGAACUUCCAACACUAUGUUGAAUACGAGUGGUGAGAGAGGGCAUCCCUGUCUUGUGCCAGUUUUCAAAGGGAAUGCUUCCAGUUUUUG	0.996
AAAAGCCACUUUAUUUUAAAAUAUCAUGUGACAGAUACUUUCCAGAGCUACAACAUGCCAUCUAUAGUUGCCAGCCCUGGUCAGUUUUGAUUCUUAACCCCAUGGACUCC	0.345
AUAUUCAAAGUGCAAUUCGCGUCUAGAUUAUCCACACAAUUUCACUAAUUGAAAAAUAUCAAAUUUACUAUUAUAAUGUAAGAGAGAAAUAUAGGUCAUAACUUCGGCAC	0.293
UCCAAGGCACCCAAUGCUCCACCCUUUAAUACAGUUUCUUAUGGUUGUUGUGACCCCCAACCAUAAAAUCAUUUUGUUGCUAUUUCAUGUCUGUAAUUUUGCUAGUUCAU	0.771
UCAGAAUAUGCUCAUCCACUCCUUCAUCAUCCCACUAUCCGAGUCCUACUUCGUUCCCCCUUUGUAAGUCUCUGGAGGAUGUGACCAAGGUCUCCCGUGAGUGUCUGUCG	0.264
CGGCCCCUUCUUUUGUCUUCCUGGCAGGAAAGCAAGACAGUGAGCCAUGCCCUAAAACACUCACACCUGUAAACCCAGUCCUUAGGAGACUGAGGCAGGAGGAUCCCUGU	0.259
CCAUCCUACUAUAAUAAAUUUUGCACCCACACACAAGUACACAGUUUGCUGUUUUAGAAAGUGAUUCUACAAUCUCGGCUGUCAGGACAGCUGGGAUGCUUACUGUGAAA	0.738

Block 3 — method: RNA Bind-n-Seq; form: RNA; medium: in vitro; concentration: 200 nM; notes: whole 134-nt RNA, ends assumed; with: 150 mM LiCl; reference: input library; direction: higher = stronger binding; each molecule: 7-deaza-guanosine replaces G
Target: Ras GTPase-activating protein-binding protein 1, full length (G3BP1, Homo sapiens, UniProt Q13283)
UniProt Q13283, sequence (whole entry, looked up): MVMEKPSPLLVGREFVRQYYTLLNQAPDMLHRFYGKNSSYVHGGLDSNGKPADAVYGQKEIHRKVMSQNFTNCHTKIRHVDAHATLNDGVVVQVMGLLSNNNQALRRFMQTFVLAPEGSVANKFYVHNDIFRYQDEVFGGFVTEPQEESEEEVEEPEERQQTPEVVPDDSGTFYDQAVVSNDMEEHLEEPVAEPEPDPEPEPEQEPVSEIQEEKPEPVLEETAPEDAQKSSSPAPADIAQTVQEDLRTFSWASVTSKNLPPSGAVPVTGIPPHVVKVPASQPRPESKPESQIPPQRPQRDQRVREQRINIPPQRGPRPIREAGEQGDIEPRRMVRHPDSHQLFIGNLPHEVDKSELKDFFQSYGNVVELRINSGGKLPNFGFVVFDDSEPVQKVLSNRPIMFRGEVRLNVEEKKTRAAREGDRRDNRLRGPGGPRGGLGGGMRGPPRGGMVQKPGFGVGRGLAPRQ
All sequences stand within: GGGAGUUCUACAGUCCGACGAUC … UGGAAUUCUCGGGUGUCAAGG
Oligonucleotide	log2 enrichment
AGUCCUGUGCUACACAUCGUAUGUACCGAAUCGGUUUUUGGGUUUUUGGGGUUUUUGGAAAGUAUUAUGUUACGCCGUUCGGAUCUGCAC	0.074
GUCCUGUGCUACACAUCGUAUGUACCGAAUCGGGUUUGGGAAAAAGGGAAAAAAAGGGAAAGUAUUAUGUUACGCCGUUCGGAUCUGCAC	-0.0716
UGGCCCUGGUGGCAUGCGGGGAGGAAGAGGUGGCCUCAUCGAUCGUGGUGGUCCCGGUGGAAUGUUCAGAGGUGGCCGUGGUGGAGACAG	0.26
GUCCUGUGCUACACAUCGUAUGUACCGAAUCGGUUUUUGGUUUUUUUGGUUUUUUUGGAAAGUAUUAUGUUACGCCGUUCGGAUCUGCAC	-1.16
UGGCCCUGGUGGCAUGCGGGGAGGAAGAGGUGGCCUCAUGGAUCGUGGUGGUCCCGGUGGAAUGUUCAGAGGCGGCCGUGGUGGAGACAG	0.0784
GUCCUGUGCUACACAUCGUAUGUACCGAAUCGGGUUUUUGGGGUUUUUGGGUUUUUGGGAAAGUAUUAUGUUACGCCGUUCGGAUCUGCA	-0.379
UCUUCCGUGACAUUUCAUUUGGGGAACAACUUUUCUCUUUACAGGCCCGAGUGACUAAGGGAUGUACCAUUGUUAAGCCUUUCAACCUGU	1.69
CCUGUGCUACACAUCGUAUGUACCGAAUCGGUUUUUUUGGGUUUUUUUGGGUUUUUUUGGAAAGUAUUAUGUUACGCCGUUCGGAUCUGC	0.914

Block 4 — method: protein-binding microarray; form: double-stranded DNA, one strand shown; medium: in vitro; concentration: 2200 nM top; notes: 60-bp whole probe; with: salmon DNA 0.4 mg/ml; reference: random background probes; direction: higher = stronger binding; all sequences stand within: GCCTAGCAC … GTCTTGATTCGCTTGACGCTGCTG
Target: Interferon regulatory factor 7, full length, phosphomimetic (IRF7, Homo sapiens, UniProt Q92985, residues 1-503, S471D/S472D/S475D/S476D/S477D/S483D/S484D/S487D)
UniProt Q92985, sequence (whole entry, unmodified, looked up): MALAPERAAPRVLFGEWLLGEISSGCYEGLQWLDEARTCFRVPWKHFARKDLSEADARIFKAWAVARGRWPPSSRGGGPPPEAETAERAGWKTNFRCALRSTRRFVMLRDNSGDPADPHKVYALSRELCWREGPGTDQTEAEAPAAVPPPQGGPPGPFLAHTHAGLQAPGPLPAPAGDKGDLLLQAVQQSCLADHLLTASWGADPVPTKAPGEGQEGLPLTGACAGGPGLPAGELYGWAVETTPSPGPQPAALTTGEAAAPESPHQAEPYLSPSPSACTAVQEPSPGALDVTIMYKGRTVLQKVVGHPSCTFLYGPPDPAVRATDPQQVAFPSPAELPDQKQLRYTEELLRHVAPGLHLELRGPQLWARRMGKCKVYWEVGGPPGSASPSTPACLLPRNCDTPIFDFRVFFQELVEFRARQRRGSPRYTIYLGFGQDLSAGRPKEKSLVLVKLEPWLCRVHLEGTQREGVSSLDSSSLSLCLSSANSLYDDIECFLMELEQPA
Oligonucleotide	fitted relative affinity [z-score]
TGAGGTCTCGGTCTCGGTTAGTGCTAG	0.29
GACGTTCTCCTACTGCTGACGTGCTAG	1.42
TTAGAACTGGGGTATCAATTAGTGCTA	-0.103
TCAGGTTTCGGGACTGGGTTAGTGCTA	3.68
GATGGACTGGACTTTCGGGACGTGCTA	2.53
ATAGAACTGAGTCTCGATTAGTGCTAG	-0.138
TTAGGTATAGGGACTGGGTTAGTGCTA	-0.602
GACGGACTGGAGACTGGGGACGTGCTA	-0.947
CATGAATCAGGCATAGCATGGTGCTAG	-0.0532
GACGGACTGCTTCTCCAGACGTGCTAG	0.172
GACGGACTGGGTCTCGCGACGTGCTAG	-0.735
TTAGGTATCCGACTGGGTTAGTGCTAG	-0.188
TCAACACTCGGTTTCCAACTGTGCTAG	4.26
GACGATACCAGTCTCGAGACGTGCTAG	0.43
CTAGGACTGGGTTTCGGTTAGTGCTAG	3.4
AGGAATCTTGAGTTAGAGACGTGCTAG	-0.612
TTATATTTCGGGTATCGATTAGTGCTA	2.65
TTAGGACTGGACACTGGGTTGGTGCTA	-0.832
GACGAATTACCTCTGGAGCAGTGCTAG	-0.369

Block 5 — method: RNAcompete; form: RNA; medium: in vitro; concentration: 20 nM; notes: 7-mer, probes averaged, single round; reference: mean of 7-mers; direction: higher = stronger binding
Target: PABPC1L2, full length, GST fusion (mouse, UniProt A0ABA7IW68)
Construct (chain): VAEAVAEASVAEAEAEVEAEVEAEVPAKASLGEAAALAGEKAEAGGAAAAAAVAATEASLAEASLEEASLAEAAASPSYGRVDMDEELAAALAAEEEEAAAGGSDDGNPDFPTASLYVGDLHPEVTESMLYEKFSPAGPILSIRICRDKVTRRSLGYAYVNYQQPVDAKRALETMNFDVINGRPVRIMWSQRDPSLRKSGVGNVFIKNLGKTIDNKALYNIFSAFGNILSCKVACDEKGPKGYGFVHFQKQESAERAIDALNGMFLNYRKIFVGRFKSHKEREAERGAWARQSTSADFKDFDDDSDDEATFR
Oligonucleotide	7-mer Z-score
CGAAUCC	-0.206
UAAAAAC	11.2
GGUUAGU	-0.0826
GUCCAGU	-0.318
CAAAGAU	0.811
UAAGCCC	-0.246
AACUUAG	0.233
AAUAUGG	0.753
AGUACAU	0.131
UCCAUAA	0.144
UAUAGUG	-0.211
CGUCGUA	-0.49
ACCAGUG	-0.05
AAUUGAA	0.227
UUUUCUA	-0.284
CACCGAG	-0.012
CAUUAGU	-0.199
GUGUCUC	-0.287
GGAGACA	0.267
UCCCUCG	-0.427
GCGGAGC	0.0152
UCUCGUU	-0.438
GCUUUAU	-0.2

Some of these lines once more (block 4):
Oligonucleotide	fitted relative affinity [z-score]
TCAACACTCGGTTTCCAACTGTGCTAG	4.26
GACGATACCAGTCTCGAGACGTGCTAG	0.43
CTAGGACTGGGTTTCGGTTAGTGCTAG	3.4
AGGAATCTTGAGTTAGAGACGTGCTAG	-0.612
TTATATTTCGGGTATCGATTAGTGCTA	2.65
TTAGGACTGGACACTGGGTTGGTGCTA	-0.832
